Assay results gathered from unrelated publications.
Lines come from different studies, so protocols differ.

For `Nc1nccc(-n2cc(C(=O)NC3CCNCC3)c3ccc(C#CC4(O)CCCCC4)cc32)n1`, the CLint was < 9.6 µL/min/mg (human liver microsomes; 1 µM, pH 7.4).
The CLint of `O=[N+]([O-])c1ccc(Nc2ncnc3ccc(-c4cccc(N5CCOCC5)c4)cc23)cc1C(F)(F)F` is reported as 26 µL/min/mg (human liver microsomes).
For `CS(=O)(=O)c1cnc(NS(=O)(=O)c2ccc(N)cc2)nc1`, the CLint was ~1 µL/min/mg (human liver microsomes; 2 µM).
For `c1cc(-c2ccc3ncnc(Nc4ncco4)c3c2)nc(N2CCOCC2)c1`, the CLint was 44 µL/min/mg (human liver microsomes).
The CLint of `CCCC1O[C@@H]2C[C@H]3[C@@H]4CCC5=CC(=O)C=C[C@]5(C)[C@H]4[C@@H](O)C[C@]3(C)[C@]2(C(=O)CO)O1` (stereo partly drawn) is reported as 1.14 µL/min/mg (EpiIntestinal microtissues; 10 µM, pH 6.5).
With `Cn1cc(Nc2ncnc3ccc(-c4cccc(N5CCOCC5)c4)cc23)cn1` the CLint was 46 µL/min/mg (human liver microsomes).
The CLint of `O=C1CC[C@H](N2Cc3cc(N4CCN(CC5CCN(c6ccc([C@@H]7c8ccc(O)cc8CC[C@@H]7c7ccccc7)cc6)CC5)CC4)ccc3C2=O)C(=O)N1` is reported as 29 µL/min/mg (SD rat liver microsomes; 1 µM, pH 7.4, 0.5 mg/mL microsomal protein).
`Clc1cccc(Nc2ncnc3ccc(-c4cccc(N5CCOCC5)c4)cc23)c1` has a CLint of 170 µL/min/mg (human liver microsomes).
`Nc1nccc(-n2cc(C(=O)N3CCNCC3)c3ccc(C#CC4(O)CCCCC4)cc32)n1` gave a CLint of 20.4 µL/min/mg (human liver microsomes; 1 µM, pH 7.4).
For `CCOC(=O)C1=C(CN2CCOCC2)NC(c2nccs2)=NC1c1ccc(F)cc1Br` (stereo not drawn), the CLint was 69.1 mL/min/kg (human liver microsomes; 1 µM, pH 7.4).
`C[C@@H]1COCCN1c1cccc(-c2ccc3ncnc(Nc4ncco4)c3c2)c1` has a CLint of 120 µL/min/mg (human liver microsomes).
`C[C@H](O)[C@@H](O)[C@@H](O)[C@H](O)C(=O)O`: “z-scored log2 fold change” 0.463 (binding, equilibrium dialysis LC-MS; 5 µM, thermostabilized A2AR-BRIL construct; reference: no-protein control, direction not given).
`O=C(Nc1ccc(CN2CCOCC2)c(C(F)(F)F)c1)c1ccc(C#Cc2cccc3cnccc23)cn1` has a CLint of 0.104 mL/min/mg protein (CD-1 mouse liver microsomes; 1 µM, 0.5 mg/mL microsomal protein).
With `CN(c1ccc(F)cc1)c1c(-c2cc(Cl)ccn2)nc2ccccn12` the CLint was > 300 µL/min/10⁶ cells (rat hepatocytes).
`O=C1CC2(CCCC2)CC(=O)N1CCCCN1CCN(c2ncccn2)CC1` has a CLint of 0.24 µL/min/mg (EpiIntestinal microtissues; 10 µM, pH 6.5).
Under “z-scored log2 fold change”, `OC[C@H]1O[C@H](OC[C@H]2OC(O)[C@H](O)[C@@H](O)[C@@H]2O)[C@H](O)[C@@H](O)[C@@H]1O` (stereo partly drawn) is recorded as 0.192 (binding, equilibrium dialysis LC-MS; 5 µM, thermostabilized A2AR-BRIL construct; reference: no-protein control, direction not given).
For `CN1CCN(C(=O)c2ccc3cc(CCNc4ccnc5ccc(C#N)cc45)ccc3c2)CC1`, the CLint was 6.39 µL/min/10⁶ cells (human hepatocytes, female; 2 µM, 37 °C).
The CLint of `CN1CCN(c2cccc(-c3ccc4ncnc(Nc5ccc([N+](=O)[O-])c(C(F)(F)F)c5)c4c3)c2)CC1` is reported as < 3 µL/min/mg (human liver microsomes).
For `CCN(CC)Cc1ccc2cc(COC(=O)Nc3ccc(C(=O)NO)cc3)ccc2c1`, the CLint was 14.9 µL/min/mg (rat liver microsomes 0.5 mg/mL; pH 7.4, 37 °C, together with: NADPH).
`Cc1nc2ccc(OCc3ccc(C(F)(F)F)cc3)cc2[nH]1` has a CLint of 3.1 µL/min/mg (human liver S9; 1 µM, pH 7.4).
For `CCOC(=O)C1=C(CN2CCC[C@@H]2C(=O)Nc2ccc(B(O)O)cc2)NC(c2nccs2)=N[C@H]1c1ccc(F)cc1Br`, the CLint was 7.4 mL/min/kg (human liver microsomes; 1 µM, pH 7.4).

For quick reference, copied from above:
`O=C(Nc1ccc(CN2CCOCC2)c(C(F)(F)F)c1)c1ccc(C#Cc2cccc3cnccc23)cn1` has a CLint of 0.104 mL/min/mg protein (CD-1 mouse liver microsomes; 1 µM, 0.5 mg/mL microsomal protein).
With `CN(c1ccc(F)cc1)c1c(-c2cc(Cl)ccn2)nc2ccccn12` the CLint was > 300 µL/min/10⁶ cells (rat hepatocytes).
